Experimental data collected from several papers.
Parts stem from different laboratories: compare values within a part only. “And” joins repeats or separate records; there may be more than shown.
Chain of UniProt Q9H2X6 (whole entry, looked up): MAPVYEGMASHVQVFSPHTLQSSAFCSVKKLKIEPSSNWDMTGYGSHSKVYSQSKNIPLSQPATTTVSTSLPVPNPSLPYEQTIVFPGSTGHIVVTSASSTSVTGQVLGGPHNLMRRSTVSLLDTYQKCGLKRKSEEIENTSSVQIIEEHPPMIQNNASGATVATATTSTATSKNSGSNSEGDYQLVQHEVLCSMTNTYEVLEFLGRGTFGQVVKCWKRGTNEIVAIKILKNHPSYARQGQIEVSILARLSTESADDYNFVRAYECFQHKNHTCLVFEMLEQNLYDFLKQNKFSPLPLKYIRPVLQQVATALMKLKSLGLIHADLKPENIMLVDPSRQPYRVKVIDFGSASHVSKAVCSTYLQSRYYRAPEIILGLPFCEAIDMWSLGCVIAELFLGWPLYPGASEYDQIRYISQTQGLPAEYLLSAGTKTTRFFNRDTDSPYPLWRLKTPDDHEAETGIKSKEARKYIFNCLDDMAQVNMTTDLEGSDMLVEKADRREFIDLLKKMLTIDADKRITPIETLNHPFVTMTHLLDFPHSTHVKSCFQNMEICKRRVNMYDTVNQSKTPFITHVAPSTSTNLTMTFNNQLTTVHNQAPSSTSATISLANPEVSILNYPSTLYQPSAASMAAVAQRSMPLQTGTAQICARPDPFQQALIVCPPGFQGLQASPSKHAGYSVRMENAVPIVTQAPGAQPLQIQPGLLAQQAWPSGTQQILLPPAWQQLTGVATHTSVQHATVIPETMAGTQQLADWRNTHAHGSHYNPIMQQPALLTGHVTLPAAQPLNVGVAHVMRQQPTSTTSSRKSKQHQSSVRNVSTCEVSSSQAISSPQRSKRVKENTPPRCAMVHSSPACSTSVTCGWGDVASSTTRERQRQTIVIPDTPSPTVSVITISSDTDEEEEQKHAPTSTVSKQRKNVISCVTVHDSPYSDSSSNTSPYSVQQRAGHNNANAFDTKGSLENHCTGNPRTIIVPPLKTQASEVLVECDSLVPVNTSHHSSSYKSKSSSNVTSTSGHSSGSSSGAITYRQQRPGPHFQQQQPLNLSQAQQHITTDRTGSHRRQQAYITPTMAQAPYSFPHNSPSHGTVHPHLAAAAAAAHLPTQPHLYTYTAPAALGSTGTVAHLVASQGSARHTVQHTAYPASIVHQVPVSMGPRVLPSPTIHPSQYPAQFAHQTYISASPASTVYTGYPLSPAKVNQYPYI
Chain of UniProt Q16644 (whole entry, looked up): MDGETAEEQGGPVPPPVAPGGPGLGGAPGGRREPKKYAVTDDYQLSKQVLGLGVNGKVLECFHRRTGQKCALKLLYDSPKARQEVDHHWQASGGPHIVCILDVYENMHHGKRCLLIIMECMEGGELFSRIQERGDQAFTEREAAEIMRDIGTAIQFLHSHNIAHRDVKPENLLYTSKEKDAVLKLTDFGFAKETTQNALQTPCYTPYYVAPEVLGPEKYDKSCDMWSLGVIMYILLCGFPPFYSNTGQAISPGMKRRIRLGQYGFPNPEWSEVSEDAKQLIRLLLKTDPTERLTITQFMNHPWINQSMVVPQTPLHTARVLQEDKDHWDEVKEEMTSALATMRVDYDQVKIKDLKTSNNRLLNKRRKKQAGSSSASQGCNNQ
Chain of UniProt O95819 (whole entry, looked up): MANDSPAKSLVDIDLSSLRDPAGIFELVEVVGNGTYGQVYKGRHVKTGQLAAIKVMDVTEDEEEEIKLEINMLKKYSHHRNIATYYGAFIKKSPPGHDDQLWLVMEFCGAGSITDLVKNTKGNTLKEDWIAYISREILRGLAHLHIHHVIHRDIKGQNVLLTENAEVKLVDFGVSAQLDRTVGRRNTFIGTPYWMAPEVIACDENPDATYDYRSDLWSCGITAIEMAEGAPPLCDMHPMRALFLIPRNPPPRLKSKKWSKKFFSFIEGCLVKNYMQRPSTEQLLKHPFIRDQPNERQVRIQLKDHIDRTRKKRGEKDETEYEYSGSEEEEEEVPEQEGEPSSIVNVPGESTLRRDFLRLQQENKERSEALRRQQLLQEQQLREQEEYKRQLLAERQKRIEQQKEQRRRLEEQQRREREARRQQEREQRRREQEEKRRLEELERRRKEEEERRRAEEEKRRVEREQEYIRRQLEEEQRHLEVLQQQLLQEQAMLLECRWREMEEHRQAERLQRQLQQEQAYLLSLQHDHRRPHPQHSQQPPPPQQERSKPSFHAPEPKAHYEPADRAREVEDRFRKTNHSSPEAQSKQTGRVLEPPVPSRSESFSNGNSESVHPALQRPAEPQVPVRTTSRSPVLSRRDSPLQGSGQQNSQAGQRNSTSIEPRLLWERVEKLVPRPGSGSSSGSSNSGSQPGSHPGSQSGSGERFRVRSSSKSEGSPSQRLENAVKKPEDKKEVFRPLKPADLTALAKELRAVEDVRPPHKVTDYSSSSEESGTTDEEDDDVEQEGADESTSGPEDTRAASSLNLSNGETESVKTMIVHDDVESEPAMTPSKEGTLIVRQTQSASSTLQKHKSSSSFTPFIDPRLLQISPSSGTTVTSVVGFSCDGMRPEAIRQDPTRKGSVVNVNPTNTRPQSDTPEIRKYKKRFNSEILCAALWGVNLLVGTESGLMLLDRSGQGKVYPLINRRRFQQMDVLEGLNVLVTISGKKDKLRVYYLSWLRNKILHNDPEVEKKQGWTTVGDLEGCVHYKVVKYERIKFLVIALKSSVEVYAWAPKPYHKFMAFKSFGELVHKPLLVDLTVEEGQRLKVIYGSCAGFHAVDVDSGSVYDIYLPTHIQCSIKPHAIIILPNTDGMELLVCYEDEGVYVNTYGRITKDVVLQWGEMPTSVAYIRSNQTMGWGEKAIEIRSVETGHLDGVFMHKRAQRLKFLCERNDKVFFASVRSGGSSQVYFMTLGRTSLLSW
Chain of UniProt P54762 (whole entry, looked up): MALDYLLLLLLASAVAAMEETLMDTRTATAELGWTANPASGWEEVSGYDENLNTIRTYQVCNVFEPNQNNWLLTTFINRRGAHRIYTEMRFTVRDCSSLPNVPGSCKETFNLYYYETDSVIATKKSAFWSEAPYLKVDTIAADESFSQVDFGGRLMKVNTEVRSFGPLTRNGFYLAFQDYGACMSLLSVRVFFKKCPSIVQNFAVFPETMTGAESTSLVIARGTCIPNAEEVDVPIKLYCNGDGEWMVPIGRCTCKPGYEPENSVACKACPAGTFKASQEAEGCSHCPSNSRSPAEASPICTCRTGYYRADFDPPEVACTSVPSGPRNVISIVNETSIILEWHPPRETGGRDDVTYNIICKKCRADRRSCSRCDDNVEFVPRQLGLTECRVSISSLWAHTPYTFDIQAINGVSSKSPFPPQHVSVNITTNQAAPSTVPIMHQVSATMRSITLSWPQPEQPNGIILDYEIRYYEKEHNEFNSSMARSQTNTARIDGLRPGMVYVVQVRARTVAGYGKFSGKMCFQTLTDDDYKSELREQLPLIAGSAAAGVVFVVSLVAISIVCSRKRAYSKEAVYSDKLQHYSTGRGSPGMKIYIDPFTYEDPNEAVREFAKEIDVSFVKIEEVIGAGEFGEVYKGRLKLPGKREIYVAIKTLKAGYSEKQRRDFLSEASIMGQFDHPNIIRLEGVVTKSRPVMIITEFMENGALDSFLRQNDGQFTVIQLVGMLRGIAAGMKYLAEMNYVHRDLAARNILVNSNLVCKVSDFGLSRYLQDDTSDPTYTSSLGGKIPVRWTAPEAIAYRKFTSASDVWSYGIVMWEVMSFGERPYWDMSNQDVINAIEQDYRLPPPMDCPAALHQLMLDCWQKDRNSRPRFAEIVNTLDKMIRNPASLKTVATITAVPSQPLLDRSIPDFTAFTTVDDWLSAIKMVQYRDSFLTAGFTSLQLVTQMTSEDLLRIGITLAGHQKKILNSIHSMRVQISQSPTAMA
Chain of UniProt P06493 (whole entry, looked up): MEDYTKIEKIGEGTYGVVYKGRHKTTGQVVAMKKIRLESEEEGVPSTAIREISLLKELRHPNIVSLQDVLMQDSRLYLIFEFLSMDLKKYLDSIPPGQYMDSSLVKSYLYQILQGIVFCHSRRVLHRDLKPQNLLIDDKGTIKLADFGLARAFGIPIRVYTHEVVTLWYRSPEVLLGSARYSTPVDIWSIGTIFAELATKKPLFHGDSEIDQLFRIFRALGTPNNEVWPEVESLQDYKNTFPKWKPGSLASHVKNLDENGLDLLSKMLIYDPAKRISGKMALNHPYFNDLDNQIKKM
Chain of UniProt P11802 (whole entry, looked up): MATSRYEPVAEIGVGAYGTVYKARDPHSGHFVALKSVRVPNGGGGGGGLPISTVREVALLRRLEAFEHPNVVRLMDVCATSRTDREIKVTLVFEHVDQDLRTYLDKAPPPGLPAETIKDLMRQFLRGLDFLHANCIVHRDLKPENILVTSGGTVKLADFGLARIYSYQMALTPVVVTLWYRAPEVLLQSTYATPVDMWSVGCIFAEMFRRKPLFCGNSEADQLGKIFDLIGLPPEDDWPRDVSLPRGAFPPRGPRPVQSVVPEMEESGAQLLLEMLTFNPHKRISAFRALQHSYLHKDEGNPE

Set 1
Cell line: A-375
Tested at: 100 µM
Time: 18 h
Measurement: viability
COc1cnc(NS(=O)(=O)c2ccc(N)cc2)nc1: 88.8%
CNC(=O)c1cnn(-c2nc(N)c3ncn([C@@H]4O[C@H](CO)[C@@H](O)[C@H]4O)c3n2)c1: 106%
CS(=O)(=O)c1ccc(C2=C(c3ccccc3)C(=O)OC2)cc1: 98.5%
COc1ccc(CN=c2[nH]c(N3CCC[C@H]3CO)ncc2C(=O)NCc2ncccn2)cc1Cl: 64.4%
O=C1c2cccc(O)c2C(=O)c2c(O)cc(CO)cc21: 79.3%
Nc1nc2[nH]cc(CCc3ccc(C(=O)N[C@@H](CCC(=O)O)C(=O)O)cc3)c2c(=O)[nH]1: 81.9% and 99.6%
O=C(Nc1ccccc1)OCC(CN1CCCCC1)OC(=O)Nc1ccccc1 (stereo not shown): 28.3%
Cc1ncc([N+](=O)[O-])n1CC(O)CCl (stereo not shown): 79.5%
COc1ccc([C@@H]2CC(=O)c3c(O)cc(O)cc3O2)cc1O: 99.6%

Set 2
SMILES: N#CC(c1ccnc(NCCc2cccnc2)n1)c1nc2ccccc2s1 (stereo not shown)
Observed: enzyme activity
Mode: inhibitor
Tested at: 0.5 µM
Relative to: control
Measurement: remaining activity
Cyclin-dependent kinase 4, with cyclin D3 (CDK4, Homo sapiens, UniProt P11802): 85.7%
RPS6KA5 (Homo sapiens, UniProt O75582): 98.9%
MAPKAPK3 (Homo sapiens, UniProt Q16644): 102%
BLK (Homo sapiens, UniProt P51451): 102%
MAP4K4 (Homo sapiens, UniProt O95819): 87.1%
DYRK3 (Homo sapiens, UniProt O43781): 103%
RPS6KA6 (Homo sapiens, UniProt Q9UK32): 87%
CAMK2B (Homo sapiens, UniProt Q13554): 97.3%
EPHB1 (Homo sapiens, UniProt P54762): 90.9%
PHKG1 (Homo sapiens, UniProt Q16816): 89%
STK17A (Homo sapiens, UniProt Q9UEE5): 94%
ABL1 (Homo sapiens, UniProt P00519): 96.3%
HIPK2 (Homo sapiens, UniProt Q9H2X6): 95.8%
SRMS (Homo sapiens, UniProt Q9H3Y6): 106%
Cyclin-dependent kinase 1, with cyclin B (CDK1, Homo sapiens, UniProt P06493): 96.8%
AXL (Homo sapiens, UniProt P30530): 106%
HIPK4 (Homo sapiens, UniProt Q8NE63): 97.6%

Set 3
Target: Muscarinic acetylcholine receptor M2 (CHRM2, Homo sapiens, UniProt P08172)
Chain of UniProt P08172 (whole entry, looked up): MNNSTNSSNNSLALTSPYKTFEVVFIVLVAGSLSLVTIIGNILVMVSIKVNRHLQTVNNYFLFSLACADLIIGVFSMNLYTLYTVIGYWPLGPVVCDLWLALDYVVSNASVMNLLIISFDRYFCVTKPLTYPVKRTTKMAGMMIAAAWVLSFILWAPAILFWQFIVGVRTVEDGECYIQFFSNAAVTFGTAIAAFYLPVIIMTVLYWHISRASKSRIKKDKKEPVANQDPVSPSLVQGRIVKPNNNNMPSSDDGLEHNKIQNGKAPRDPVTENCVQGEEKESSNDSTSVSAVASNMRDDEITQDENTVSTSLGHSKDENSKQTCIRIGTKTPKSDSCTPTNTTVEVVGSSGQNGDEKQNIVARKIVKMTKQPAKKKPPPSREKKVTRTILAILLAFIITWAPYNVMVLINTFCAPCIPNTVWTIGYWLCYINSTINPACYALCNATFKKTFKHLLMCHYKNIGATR
Observed: ligand displacement
Tested at: 10 µM
Measurement: inhibition
CC(=O)N1CCC(c2ccc(C(=O)NC3=NCCN3)cc2C(F)(F)F)CC1: -0.799%
CN1CCN(C(=O)C(C)(C)c2ccc(C(=O)Nc3cn4cc(-c5cc(C(C)(C)C)cc(C(C)(C)C)c5)ccc4n3)cc2)CC1: 6.55%
c1ccc(N2CCN(Cc3nc4ccccc4[nH]3)CC2)nc1: 19.5%
CO[C@H]1CC[C@H](CNc2ccc(S(=O)(=O)NC(=O)c3ccc(N4CCN(CC5=C(c6ccc(Cl)cc6)CC(C)(C)CC5)CC4)cc3Oc3cnc4[nH]ccc4c3)cc2[N+](=O)[O-])CC1: -2.68%
O=c1nc(-c2ccccn2)sc2ccccc12: 5.18%
Nc1cnc(N2CCc3cc(S(=O)(=O)Nc4c(F)cc(Cl)cc4F)cc(N4CCCC4=O)c32)nc1: 3.7%
COc1ccc2cc(OCC3(C(=O)O)CN(C(=O)c4ccc(F)cc4)C3)ccc2c1: 16.7%
CNC(=N)NCCC[C@H](NC(=O)[C@H](CC(C)C)NC(=O)NNC(=O)[C@H](Cc1ccccc1)NC(=O)[C@H](CO)NC(=O)[C@H](CC(N)=O)NC(=O)[C@@H](Cc1ccncc1)NC(=O)[C@H](N)Cc1ccc(O)cc1)C(=O)N[C@@H](Cc1ccccc1)C(N)=O: 25.1%
O=C(Nc1ccc(Oc2ccc(F)cc2)cc1)N1CCc2ncccc2[C@H]1c1ccc(F)cc1: -1.78%
Cn1nc(C(=O)NCc2ccc(C(=O)O)cc2)cc1-c1ccc2[nH]ccc2c1: -8.35%
Nc1nc(NCc2ccccc2)nc(-c2cccc(CO)c2)n1: 18.3%
CC1=C(C#N)C(c2ccc3[nH]nc(C)c3c2)C(C#N)=C(C)N1: -8.64%
COCCOc1nc(-c2ccc(Cl)nc2)nc2c1CN(C(=O)c1ncn3ccccc13)CC2: 19.3%

Mixed results
O=C1CCC(N2Cc3cc(C4CCN(Cc5ccccc5)CC4)ccc3C2=O)C(=O)N1 (stereo not shown)  CL (ICR mouse, male, plasma; intravenous, 1.0 mg/kg): 54.2 mL/min/kg

Some of these lines once more (set 3):
O=C(Nc1ccc(Oc2ccc(F)cc2)cc1)N1CCc2ncccc2[C@H]1c1ccc(F)cc1: -1.78%
Cn1nc(C(=O)NCc2ccc(C(=O)O)cc2)cc1-c1ccc2[nH]ccc2c1: -8.35%
Nc1nc(NCc2ccccc2)nc(-c2cccc(CO)c2)n1: 18.3%
CC1=C(C#N)C(c2ccc3[nH]nc(C)c3c2)C(C#N)=C(C)N1: -8.64%
COCCOc1nc(-c2ccc(Cl)nc2)nc2c1CN(C(=O)c1ncn3ccccc13)CC2: 19.3%
